Assay results gathered from unrelated publications.
Each numbered part is a random draw from the data of one study; scales do not carry over between parts. Changes are numbered by the printed parent chain.

Series 1
Target: RNA binding protein fox-1 homolog 2, RRM domain, GST-SBP tag (RBFOX2, Homo sapiens, UniProt O43251-10, residues 100-194)
Method: RNA Bind-n-Seq
Form: RNA
Sample: in vitro
Concentration: 365 nM
Setting: natural RNA segment, single round, ends assumed
Relative to: no-protein control
Reading: higher = stronger binding
All sequences stand within: GGGAGUUCUACAGUCCGACGAUC … UGGAAUUCUCGGGUGCCAA
Residues (chain): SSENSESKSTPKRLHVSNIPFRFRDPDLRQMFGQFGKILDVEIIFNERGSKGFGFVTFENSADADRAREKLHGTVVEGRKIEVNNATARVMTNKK
Strand | RBNS enrichment (R)
UCACAUGUUCUGAGUAUGGAACCUCAUCUGUGUUGCUUUUUCUUUCUCUGUGUCCUCACUGUGGGGCUGAGGUCUCAGGGGCUCCCCUCUGCUAAGGUUCCUUCCCUUUG | 0.405
AACCCUUUCAAGGAUAAAAAAACUUGCAUCAUCUUAUAGUGGAAUAGAGAAACAGCUCCUCGCCUCUUCCCAACAACGCAAAUUAUGAGCAGCUCCUUGAAGAGAUUUAC | 0.399
UGUAUACUCUUCUAUAAAUAAAAGGGAGGAAUAUAUUCUGCUGGAAGCCCAUGAACCAUCGCUGAGGUUCUGAUACAACAUAGAGUUUUUUCCAAGGAGUGAAUGUGGUU | 1.26
AGAGCUCCACAUACAGAAACACAUUAUUUUGCAGAAAUAGGUGUUUUUAAGAAGUUUUACUACAGGAAUGUCUACUUUUGUAAGUGACAGGUGUUAAAGGCCCAGGUGUG | 0.748
GUUGUCAAACUUGCAAGCAUUUAUUUGUCUUUAUGACUGUCAUGGGGACUGAGGUUCUUCAGAGAAAGAGUGUGAGCUGAUGACACAGUGGUUUUACACCCACCCCCUGG | 0.76
UAGGUCCAGGGCCAUGAAGACUUGGAGAGCGCAGUGGCUGGGCAAGGGGCUGCUUUGGAGGGAAGAAGCAUGUGGUCUGAGUGCUGACUAGAUGAAUAGUUGAGGCACAU | 4.21
CAAGCUAGAGAUUUUCAAAGCUACACUUUUGAGUAAAAACCCUUAUUAAAAGAAAAACAUGAUUAAUUUUUUGUCUAUUCCUUUUUUUGGAGUGGGACAGGCCCUGUGAG | 1.11
UAGCACUGUCUCUUCCUGGCAGUGCUUUCUGCUCGCCCGACAGACAGCCUGUCGUGUCUCUUUGGACAGACGGACCAUCAGUGUAGAUAAUCAGCAUGCUUGUGCAUUAC | 1.79
CAUCCUGCCUAAGCUGUGUCCCUGAGUGGUGGCUUUCCCUCCUGUCACGUGACAUCCCAUUCACUCAUCUACACUAGCCCAGUGCUCCCAUUGUCCCCUGCCUCCUCUGU | 0.484
CACGUGCUCUGUUCUCGGGGUUGUUCCAUUCAUGCCUUCUUGGAGGGUGAGGGUGGCUUGGGAACCGACCCAGUGAUCAUGCCUACUUUCUUCUUUGUAUCUCCCUCCUU | 0.335
GAUUUUUUAAUAUGUGAACACUGCAAAAAUGUGUUUAAAUUAUCUUUUUUAAAACCUAUUCAGGAUUAUUAGCCUGGACUUGGACACAGAGUUUGUAAAUAAAGGUGUCU | 1.63
CAGCAAUAUAGGACUGUUGAACAAUCCCGGUGUGUCAGGACCCCCAAAUGUCACUUCUGCAUAAAGCAUGUAUGUCAUCUAUUUUUUCUUCAAUAAAGAGAUUUAAUAGC | 5.66

Series 2
Target: Phosphate system positive regulatory protein PHO4, full length, GST-tagged (PHO4, Saccharomyces cerevisiae, UniProt P07270, residues 1-312)
Method: competition protein-binding microarray
Form: double-stranded DNA, one strand shown
Sample: in vitro
Concentration: 2 µM
Setting: whole 60-bp probe, lowest competitor level
With: Cbf1 competitor, 0.05 µM
Reading: higher = stronger binding
All sequences stand within: … GTCTTGATTCGCTTGACGCTGCTG
Target sequence (chain): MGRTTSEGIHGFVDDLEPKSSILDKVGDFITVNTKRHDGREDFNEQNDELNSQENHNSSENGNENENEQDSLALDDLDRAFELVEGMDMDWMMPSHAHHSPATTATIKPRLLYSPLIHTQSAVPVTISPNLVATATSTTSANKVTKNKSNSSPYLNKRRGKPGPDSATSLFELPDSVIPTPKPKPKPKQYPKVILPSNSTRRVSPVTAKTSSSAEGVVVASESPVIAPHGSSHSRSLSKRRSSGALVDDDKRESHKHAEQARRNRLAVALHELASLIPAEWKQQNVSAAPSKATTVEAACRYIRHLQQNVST
Strand | fluorescence intensity
CCAATCTGGGCAAAGCGCGTGAAGATCAAGACTCGC | 4500 a.u.
CTAACGAAGGTTTTTCACGTGAATTACAAGCCAAGT | 9490 a.u.
AAAGCGGTAATTTGCCTCGTGGGTGCAGATATCTAT | 12400 a.u.
CAGACGGGAAGCAGGCGCGTGCTGGCGGTGACCTGG | 10200 a.u.
AATTATCAGGGACCGGTCGTGCCGATAATGTCCTGC | 6760 a.u.
CGAAATATTATACGTCAGGTGTATATCAAGTGCTCA | 4500 a.u.
GTATCCATATCTTTTTGAGAGCATTGAAAGTATACG | 4280 a.u.
GAAGAGGACGAAGACGACGTGGTGAAAGAAGACGAA | 4940 a.u.
AAATTACTAAGTTGCTCCGTGGGTGACGCCGTATGA | 5050 a.u.
AGTAGTTTAAAATTTCACGTGTACTTTCCCTGTTTT | 12400 a.u.
CTAACGAAGGTTTGGATGGTGGGTGACAAGCCAAGT | 4140 a.u.
CAGCGGCTTTCTTTTCACGGGCTTCTCTTTCAGCTT | 4040 a.u.
CTAACGAAGGTTTGATGGGTGGGTGACAAGCCAAGT | 4350 a.u.
ATTGCTCATTGAAAGCACGTGTTCCTTCAAATGAGA | 18800 a.u.
TACGACGAAGCTTTGCACGTGTAGGAAAGAGGAAAT | 14600 a.u.
TTTTCAAGGTCTAGAAGCGTGCCGATATCATTCTGA | 7550 a.u.
CGGGGTTAAGTTTGATTCGTGGGTGGCTTGCAGCAG | 5600 a.u.
CTTTCCCGATCTTGCAAAGTGGGTGTAGCACATTTG | 4720 a.u.
AGCATATCCGCTGTTCACATGATACGGTCTAGGATT | 5190 a.u.
GTTAAGTTATTATGACGCATGCAGATAGAAGGATCA | 8950 a.u.
TGTCTGGAAGGGCCACACCCGGAATTGCAGGTCTAC | 3750 a.u.
AGACCCTTGTCGCGTCAGGTGATTGTTGTGGTACTT | 3810 a.u.
TGCGCAACAACTTGAGTGGTGGGTGTATGTCTAGAA | 4610 a.u.
CGGGGTTAAGTTTGCCGCGTGGGTGGCTTGCAGCAG | 10500 a.u.
TTGATATGTTTATGTAATAATATTTACCACCGCCAC | 4200 a.u.

Series 3
Target: CCNB2, cyclin fold, Cln2 fusion (human)
Method: yeast growth competition, sequencing
Sample: yeast
Setting: strong parent motif
Relative to: not given
Reading: higher = stronger binding
Parent: MICAL3 docking peptide (human); LQLRRQLSFSEDS; partner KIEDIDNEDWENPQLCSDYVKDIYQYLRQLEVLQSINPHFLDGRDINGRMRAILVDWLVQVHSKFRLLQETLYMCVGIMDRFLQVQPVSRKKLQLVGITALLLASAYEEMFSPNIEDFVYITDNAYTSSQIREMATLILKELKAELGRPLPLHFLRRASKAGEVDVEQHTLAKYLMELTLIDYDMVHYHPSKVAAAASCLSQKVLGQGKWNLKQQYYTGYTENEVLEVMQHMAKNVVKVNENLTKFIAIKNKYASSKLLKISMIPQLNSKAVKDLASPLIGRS
Substitution | normalised enrichment score
LQLRRQLSFAEDS [S10A] | 1.75
LQLRRQLSMSEDS [F9M] | 0.248
LQLRLQLSFSEDS [R5L] | 0.393
LQLRRQLSFSMDS [E11M] | 1.65
LGLRRQLSFSEDS [Q2G] | 3.32
LQLRRQLSFSEQS [D12Q] | 2.59
LQLTRQLSFSEDS [R4T] | 0.166
LRLRRQLSFSEDS [Q2R] | 3.06
LQLIRQLSFSEDS [R4I] | 1.37
LQLRRQLCFSEDS [S8C] | 1.31
LQLRRQLSLSEDS [F9L] | 0.000377
LQLRRQISFSEDS [L7I] | 1.89
LQLRRQRSFSEDS [L7R] | 0.0421
LQLYRQLSFSEDS [R4Y] | 1.58
LQLRRQLSQSEDS [F9Q] | 0.22
LQLRRQLSFSEIS [D12I] | 2.85
LQLRRRLSFSEDS [Q6R] | 4.92
LQLRFQLSFSEDS [R5F] | 0.362
LQLRRQLSFSNDS [E11N] | 2.11
LQLRRQGSFSEDS [L7G] | -0.124
LQLRRPLSFSEDS [Q6P] | -0.361
LQLRRQTSFSEDS [L7T] | 0.191
LQLRRQLSRSEDS [F9R] | 1.11
LQNRRQLSFSEDS [L3N] | 0.468
LQSRRQLSFSEDS [L3S] | 0.463

Series 4
Target: Sal-like protein 4, full length isoform A (SALL4, Homo sapiens, UniProt Q9UJQ4, residues 1-1053)
UniProt Q9UJQ4, sequence (whole entry, looked up): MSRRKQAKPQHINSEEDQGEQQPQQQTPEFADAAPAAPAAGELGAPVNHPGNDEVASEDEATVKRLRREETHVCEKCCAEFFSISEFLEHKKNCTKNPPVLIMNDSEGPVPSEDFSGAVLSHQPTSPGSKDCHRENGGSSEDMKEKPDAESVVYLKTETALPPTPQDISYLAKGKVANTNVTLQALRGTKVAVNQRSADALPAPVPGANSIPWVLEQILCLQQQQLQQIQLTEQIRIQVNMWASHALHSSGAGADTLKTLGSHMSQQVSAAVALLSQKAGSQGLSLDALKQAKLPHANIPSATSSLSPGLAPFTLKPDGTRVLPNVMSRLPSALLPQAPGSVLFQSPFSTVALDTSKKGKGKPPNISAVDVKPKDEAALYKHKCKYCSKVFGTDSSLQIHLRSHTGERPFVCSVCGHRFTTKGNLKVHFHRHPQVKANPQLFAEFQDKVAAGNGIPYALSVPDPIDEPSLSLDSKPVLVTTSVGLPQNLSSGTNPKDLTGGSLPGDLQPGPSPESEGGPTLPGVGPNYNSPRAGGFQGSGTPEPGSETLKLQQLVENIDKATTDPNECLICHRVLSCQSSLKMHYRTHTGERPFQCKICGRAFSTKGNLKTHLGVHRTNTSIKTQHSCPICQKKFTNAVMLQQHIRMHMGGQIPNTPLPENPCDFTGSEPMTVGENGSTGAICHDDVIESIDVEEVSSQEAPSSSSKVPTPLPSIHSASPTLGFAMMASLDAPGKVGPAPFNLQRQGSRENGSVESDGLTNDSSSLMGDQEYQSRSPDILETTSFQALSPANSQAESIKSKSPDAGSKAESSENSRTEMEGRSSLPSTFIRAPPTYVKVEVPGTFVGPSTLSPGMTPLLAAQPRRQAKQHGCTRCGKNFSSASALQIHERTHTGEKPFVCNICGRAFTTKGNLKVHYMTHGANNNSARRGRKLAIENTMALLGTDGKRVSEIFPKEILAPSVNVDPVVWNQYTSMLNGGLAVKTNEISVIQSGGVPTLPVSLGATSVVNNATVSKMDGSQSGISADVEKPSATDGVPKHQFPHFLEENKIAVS
Method: universal PBM
Form: double-stranded DNA, one strand shown
Sample: in vitro
Concentration: 600 nM
Setting: 8-mer, flanks averaged, mean of replicates
Reading: higher = stronger binding
Strand | E-score
CACTACCA | 0.0226
AACGTGAT | 0.134
CAGACGCA | -0.17
AGTAGAGG | -0.196
CTAATCCC | 0.00656
AACCCATG | -0.0361
CGAGAGAC | -0.111
GAGAAGGC | -0.196
CACGGCTA | -0.0849
CCCAACGG | -0.28
ACGCCTGC | -0.282
CTAAATTA | 0.286
CTTTAGTC | 0.0398
CACAGTCG | -0.105
AACAGTGA | 0.0946
ATATAAAG | 0.322
ATGACCCA | 0.106
AGGGTAAA | 0.137
CCTTGACC | -0.268
TACTATAA | 0.36
ATAAAGGG | 0.146
GTTCAACA | 0.0528
CGGGATAA | -0.0043
ACCTCGTG | 0.036
AATTATGC | 0.361

Series 5
Target: Histone acetyltransferase KAT6A, both winged helices, GST fusion (KAT6A, Homo sapiens, UniProt Q92794, residues 1-181)
Method: protein binding microarray
Form: double-stranded DNA, one strand shown
Sample: in vitro
Concentration: not given
Setting: 8-mer, flanks averaged, mean of 2 arrays, mostly near background
Relative to: not given
Reading: higher = stronger binding
Residues (chain): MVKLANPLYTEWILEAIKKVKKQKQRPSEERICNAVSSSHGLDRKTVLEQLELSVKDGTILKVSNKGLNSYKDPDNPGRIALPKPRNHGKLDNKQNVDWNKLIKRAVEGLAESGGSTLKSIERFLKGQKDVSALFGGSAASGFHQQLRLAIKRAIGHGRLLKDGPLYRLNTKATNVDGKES
Strand | E-score
AAAACAGC | 0.00212
CTGTACCC | 0.0504
ATGTAAGA | -0.112
CTCCAATA | -0.0504
CTAAAAGC | 0.119
CGAAGCAC | -0.182
AATCAGTG | -0.141
GCCCACCC | 0.0183
ACCCCGTA | 0.189
ACTACCCG | 0.206
AGGCTTTG | -0.205
ATAGCTAG | -0.116
GGATGGTA | -0.0617
AAGTATAT | -0.0602
AAAGCCTC | -0.233
ATTCCAGC | -0.0797
CTCTGCCC | -0.176
GAATTTGC | -0.0247
ATATATCC | 0.0796
ATGACGAC | -0.0629
GTGTATGA | -0.0649
CGGAGTAC | 0.0907
CACGCGGC | 0.261
ATTTAACG | 0.192
GGTTCGAA | 0.0209

Repeated from above (series 4):
Strand | E-score
AGTAGAGG | -0.196
CCCAACGG | -0.28
ACGCCTGC | -0.282
CTAATCCC | 0.00656
AACAGTGA | 0.0946
ATGACCCA | 0.106
AGGGTAAA | 0.137
ACCTCGTG | 0.036
CTAAATTA | 0.286
CTTTAGTC | 0.0398
CAGACGCA | -0.17
AATTATGC | 0.361
GTTCAACA | 0.0528
CACAGTCG | -0.105
